# Published values gathered from unrelated publications.
# Every numbered part comes from another study and shows a few of its results, in no order. “And” joins repeats or separate records; there may be more than shown.

# Set 1
# Target: Replicase polyprotein 1ab, main protease (rep, Severe acute respiratory syndrome coronavirus 2, UniProt P0DTD1)
# Effect on: enzyme activity
# Action: inhibitor
# Tested at: 20 µM
# Setting: hit confirmation
Structure (SMILES),inhibition
CCCCCCCCCCCCCCSCC(=O)O,-16.3%
CC(C)C[C@@H](C=O)NC(=O)[C@H](CC(C)C)NC(=O)[C@H](CC(C)C)NC(=O)OCc1ccccc1,98.8% and 78.6%
COc1cc(C(=S)N2CCOCC2)cc(OC)c1OC,18.2%

# Set 2
# Target: Histone acetyltransferase KAT6A, both winged helices, GST fusion (KAT6A, Homo sapiens, UniProt Q92794, residues 1-181)
# Technique: protein binding microarray
# Molecule type: double-stranded DNA, one strand shown
# Sample: in vitro
# Tested at: not given
# Setting: 8-mer, flanks averaged, mean of 2 arrays, mostly near background
# Baseline: not given
# Direction: higher = stronger binding
# Construct (chain): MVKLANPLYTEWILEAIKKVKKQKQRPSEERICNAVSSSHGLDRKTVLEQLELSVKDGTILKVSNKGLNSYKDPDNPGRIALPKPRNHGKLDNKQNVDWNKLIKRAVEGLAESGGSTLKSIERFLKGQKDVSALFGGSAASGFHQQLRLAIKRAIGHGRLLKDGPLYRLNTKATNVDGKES
Strand,E-score
CGATGGAG,0.0337
TACGCTGA,0.251
CAGCAGTA,-0.125
CCACAACA,-0.197
GCTAAGCC,0.162
ATACGGCC,0.234
ATTTGGGA,-0.162
CAGTAACC,0.0166

# Set 3
# Target: Replicase polyprotein 1ab, nsp13 helicase (rep, Severe acute respiratory syndrome coronavirus 2, UniProt P0DTD1)
# Action: inhibitor
# Tested at: 20 µM
Compound,inhibition [%]
CCn1cc(C(=O)O)c(=O)c2cnc(N3CCCC3)nc21,7.06
C[C@]12CCC(=O)C=C1C=C[C@@H]1[C@@H]2CC[C@@]2(C)[C@H]1CC[C@@]2(O)CCC(=O)O,-4.98
COc1ccc(-c2csc(NC(=O)[C@H]3CCCCN3S(=O)(=O)c3ccc(C)cc3)n2)cc1,4.03
COc1ccc2[nH]c(-c3ccccc3)c(CCNC(C)=O)c2c1,-2.5
CC(C)(Sc1ccc(CCN(CCCCC2CCCCC2)C(=O)NC2CCCCC2)cc1)C(=O)O,6.42
CC(=O)Nc1ccccc1,-0.64
COC(=O)c1cc2c(C(F)(F)F)cc(-c3ccccc3)cc2n1O,3.33
Cc1oc2ccccc2c1CNC(=O)NCc1cccs1,6.81
Cc1c(C(=O)NC2CCCCC2)sc2nc3ccc(N)cc3n12,1.66
OCC(CO)N[C@H]1C[C@](O)(CO)[C@@H](O)[C@H](O)[C@H]1O,3.01
Cc1ncc(CN2CC=C(c3ccccc3)CC2)c(N)n1,5.92
OC[C@H]1O[C@H](O)[C@H](O)[C@@H](O)[C@@H]1O,0.06
CC(=O)O[C@H]1C(=O)[C@@]2(C)[C@H]([C@H](OC(=O)c3ccccc3)[C@]3(O)C[C@H](OC(=O)[C@H](O)[C@@H](NC(=O)c4ccccc4)c4ccccc4)C(C)=C1C3(C)C)[C@]1(OC(C)=O)CO[C@@H]1C[C@@H]2O,4.05
COCCOC(=O)C1=C(C)NC(C)=C(C(=O)OC/C=C/c2ccccc2)C1c1cccc([N+](=O)[O-])c1 (centres unmarked),4.26
FC(F)(F)c1ccccc1-c1cc(C(F)(F)F)c2nc(C3=NOC4(CCCCC4)C3)[nH]c2c1,2.06
CCc1cccc(CC)c1NC(=O)c1nn(C)c2c1CCc1cnc(Nc3ccc(C(=O)NC4CCN(C)CC4)cc3OC(F)(F)F)nc1-2,0.31
N=C(N)NCCCC[C@@H]1NC(=O)CCSSC[C@@H](C(N)=O)NC(=O)[C@@H]2CCCN2C(=O)[C@H](Cc2c[nH]c3ccccc23)NC(=O)[C@H](CC(=O)O)NC(=O)CNC1=O,-4.22
O=C(NC[C@H](O)CN1CCc2ccccc2C1)c1cc(NC2COC2)ncn1,2.46
O=C(Nc1cc(C(F)(F)F)cc(C(F)(F)F)c1)Nc1c(Br)cc(Br)cc1-c1nn[nH]n1,4.66
CC[C@H](NC(=O)c1c(O)c(-c2ccccc2)nc2ccccc12)c1ccccc1,14.6
O=C1c2ccccc2C(=O)C1c1ccc(Br)cc1,6.88
O=c1[nH]c2ccccc2n1CCN1CCN(c2cccc(C(F)(F)F)c2)CC1,2.85
Cc1ccc2nc(N)[nH]c(=O)c2c1Sc1ccncc1,1.69
COc1ccc2c(c1)C(C(=O)N(Cc1ccc(N(C)C)cc1)c1ccc(C(C)C)cc1)CCC2 (centres unmarked),-0.41
COc1cc(CCc2cc(NC(=O)c3ccc(N4C[C@@H](C)N[C@@H](C)C4)cc3)n[nH]2)cc(OC)c1,-3.14

# Set 4
# Cell line: HEK-293T
# Effect on: pseudovirus infection
# Technique: FDA-approved drug library screen
# Organism: VSV pseudotyped with SARS-CoV-2 spike
# Tested at: 10 µM
# Time: 16 h
# Baseline: vehicle-treated
SMILES,GFP-positive cells [%]
CCCCCCCCCCCCCCCCOP(=O)([O-])OCC[N+](C)(C)C,93.2
NCC(CC(=O)O)c1ccc(Cl)cc1 (centres unmarked),91.6
CO[C@H]1O[C@@H]2O[C@@]3(C)CC[C@H]4[C@H](C)CC[C@@H]([C@H]1C)[C@@]24OO3,55.6
N[C@@H](Cc1cc(I)c(Oc2ccc(O)c(I)c2)c(I)c1)C(=O)O,110

# Set 5
# Target: Transcriptional repressor CTCF (CTCF, Homo sapiens, UniProt P49711, residues 1-727, full length assumed)
# UniProt P49711, sequence (whole entry, looked up): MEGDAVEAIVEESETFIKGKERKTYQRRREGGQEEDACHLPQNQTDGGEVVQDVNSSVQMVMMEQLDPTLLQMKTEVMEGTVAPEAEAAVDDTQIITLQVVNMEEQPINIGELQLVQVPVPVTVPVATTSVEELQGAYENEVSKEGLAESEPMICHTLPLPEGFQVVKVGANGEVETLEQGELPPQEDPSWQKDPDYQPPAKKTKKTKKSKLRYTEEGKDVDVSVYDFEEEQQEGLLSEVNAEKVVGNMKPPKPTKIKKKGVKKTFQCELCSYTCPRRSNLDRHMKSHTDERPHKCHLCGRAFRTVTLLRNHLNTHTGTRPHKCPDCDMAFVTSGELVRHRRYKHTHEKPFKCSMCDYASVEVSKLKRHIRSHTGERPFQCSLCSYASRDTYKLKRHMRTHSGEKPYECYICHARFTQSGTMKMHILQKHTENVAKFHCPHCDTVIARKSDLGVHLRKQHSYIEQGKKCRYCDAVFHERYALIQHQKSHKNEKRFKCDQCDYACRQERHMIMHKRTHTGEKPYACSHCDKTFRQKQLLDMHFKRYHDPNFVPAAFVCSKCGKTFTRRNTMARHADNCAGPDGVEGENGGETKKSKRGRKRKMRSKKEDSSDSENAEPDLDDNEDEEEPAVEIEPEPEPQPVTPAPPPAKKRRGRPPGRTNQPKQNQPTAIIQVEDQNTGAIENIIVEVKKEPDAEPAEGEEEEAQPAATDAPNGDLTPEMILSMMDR
# Technique: protein-binding microarray
# Molecule type: double-stranded DNA, one strand shown
# Sample: in vitro
# Tested at: not given
# Setting: k-mer, scored over probes, only values ≥0.25
# Direction: higher = stronger binding
Strand,E-score
CGCGCCAC,0.33
CTATTTGA,0.301
AATATAAC,0.305
AAAATGAG,0.251
ATTTAAAC,0.303
TACTTCTA,0.258
AGTGCGCA,0.337
CTAGCGGC,0.298

# Set 6
# Target: Sal-like protein 4, full length isoform B (SALL4, Homo sapiens, UniProt Q9UJQ4-2, residues 1-616)
# Technique: universal PBM
# Molecule type: double-stranded DNA, one strand shown
# Sample: in vitro
# Tested at: not given
# Setting: 8-mer, flanks averaged, mean of replicates
# Direction: higher = stronger binding
Strand,E-score
AGAGTTTA,0.2
AGCAAGTG,-0.0121
GCCTACTA,-0.0542
AGCCTGGG,-0.293
ACACCTTG,0.00635
TCACATCA,0.0403
CCAACACG,-0.0193
GTAGCCGA,-0.17

# For quick reference, copied from above (set 1):
Structure (SMILES),inhibition
CC(C)C[C@@H](C=O)NC(=O)[C@H](CC(C)C)NC(=O)[C@H](CC(C)C)NC(=O)OCc1ccccc1,98.8% and 78.6%
CCCCCCCCCCCCCCSCC(=O)O,-16.3%
COc1cc(C(=S)N2CCOCC2)cc(OC)c1OC,18.2%
